{"data": "Published values of several laboratories", "note": "Protocols differ between the studies behind these lines. Values joined by “and” are separate records of one study, mostly repeats; a detail may differ. Numbers after ± are the reported error.", "UniProt Q8NER1, sequence (whole entry, looked up)": "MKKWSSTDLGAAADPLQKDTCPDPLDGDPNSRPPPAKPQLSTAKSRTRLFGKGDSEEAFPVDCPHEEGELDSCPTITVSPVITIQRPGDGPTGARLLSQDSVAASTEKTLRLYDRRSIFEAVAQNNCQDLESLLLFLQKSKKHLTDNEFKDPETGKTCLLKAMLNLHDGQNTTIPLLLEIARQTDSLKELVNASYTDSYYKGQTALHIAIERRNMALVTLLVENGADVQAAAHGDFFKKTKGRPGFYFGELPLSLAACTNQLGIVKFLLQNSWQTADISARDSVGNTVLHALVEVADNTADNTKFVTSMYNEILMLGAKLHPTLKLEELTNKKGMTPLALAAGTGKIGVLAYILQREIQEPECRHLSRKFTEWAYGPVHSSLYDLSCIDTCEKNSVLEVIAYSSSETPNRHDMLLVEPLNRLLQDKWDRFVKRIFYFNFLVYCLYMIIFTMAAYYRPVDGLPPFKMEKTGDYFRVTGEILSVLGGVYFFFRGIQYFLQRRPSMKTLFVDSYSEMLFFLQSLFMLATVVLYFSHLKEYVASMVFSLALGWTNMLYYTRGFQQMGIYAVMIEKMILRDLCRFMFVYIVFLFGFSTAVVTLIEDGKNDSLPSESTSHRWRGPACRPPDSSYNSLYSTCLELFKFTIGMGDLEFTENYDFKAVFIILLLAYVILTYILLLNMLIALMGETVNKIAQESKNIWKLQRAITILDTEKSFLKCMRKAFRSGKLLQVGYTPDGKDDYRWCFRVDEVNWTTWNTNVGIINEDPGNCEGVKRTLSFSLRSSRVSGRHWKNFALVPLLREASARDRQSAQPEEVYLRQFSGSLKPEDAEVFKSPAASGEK", "UniProt O76090, sequence (whole entry, unmodified, looked up)": "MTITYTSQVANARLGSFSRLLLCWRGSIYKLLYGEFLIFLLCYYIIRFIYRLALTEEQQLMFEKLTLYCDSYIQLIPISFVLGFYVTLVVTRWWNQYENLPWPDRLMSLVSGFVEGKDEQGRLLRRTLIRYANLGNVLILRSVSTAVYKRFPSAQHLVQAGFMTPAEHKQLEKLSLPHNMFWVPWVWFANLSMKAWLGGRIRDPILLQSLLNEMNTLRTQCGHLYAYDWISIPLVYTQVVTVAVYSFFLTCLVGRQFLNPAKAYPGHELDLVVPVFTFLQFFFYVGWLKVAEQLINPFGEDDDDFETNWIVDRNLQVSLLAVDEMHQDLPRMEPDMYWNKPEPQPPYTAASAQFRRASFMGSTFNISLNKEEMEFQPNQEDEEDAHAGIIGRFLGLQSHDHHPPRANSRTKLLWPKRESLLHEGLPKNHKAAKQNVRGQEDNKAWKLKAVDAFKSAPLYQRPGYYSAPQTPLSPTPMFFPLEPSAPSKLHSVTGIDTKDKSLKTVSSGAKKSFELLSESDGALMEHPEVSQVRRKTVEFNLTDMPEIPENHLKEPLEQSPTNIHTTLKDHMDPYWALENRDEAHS", "UniProt P11388, sequence (whole entry, looked up)": "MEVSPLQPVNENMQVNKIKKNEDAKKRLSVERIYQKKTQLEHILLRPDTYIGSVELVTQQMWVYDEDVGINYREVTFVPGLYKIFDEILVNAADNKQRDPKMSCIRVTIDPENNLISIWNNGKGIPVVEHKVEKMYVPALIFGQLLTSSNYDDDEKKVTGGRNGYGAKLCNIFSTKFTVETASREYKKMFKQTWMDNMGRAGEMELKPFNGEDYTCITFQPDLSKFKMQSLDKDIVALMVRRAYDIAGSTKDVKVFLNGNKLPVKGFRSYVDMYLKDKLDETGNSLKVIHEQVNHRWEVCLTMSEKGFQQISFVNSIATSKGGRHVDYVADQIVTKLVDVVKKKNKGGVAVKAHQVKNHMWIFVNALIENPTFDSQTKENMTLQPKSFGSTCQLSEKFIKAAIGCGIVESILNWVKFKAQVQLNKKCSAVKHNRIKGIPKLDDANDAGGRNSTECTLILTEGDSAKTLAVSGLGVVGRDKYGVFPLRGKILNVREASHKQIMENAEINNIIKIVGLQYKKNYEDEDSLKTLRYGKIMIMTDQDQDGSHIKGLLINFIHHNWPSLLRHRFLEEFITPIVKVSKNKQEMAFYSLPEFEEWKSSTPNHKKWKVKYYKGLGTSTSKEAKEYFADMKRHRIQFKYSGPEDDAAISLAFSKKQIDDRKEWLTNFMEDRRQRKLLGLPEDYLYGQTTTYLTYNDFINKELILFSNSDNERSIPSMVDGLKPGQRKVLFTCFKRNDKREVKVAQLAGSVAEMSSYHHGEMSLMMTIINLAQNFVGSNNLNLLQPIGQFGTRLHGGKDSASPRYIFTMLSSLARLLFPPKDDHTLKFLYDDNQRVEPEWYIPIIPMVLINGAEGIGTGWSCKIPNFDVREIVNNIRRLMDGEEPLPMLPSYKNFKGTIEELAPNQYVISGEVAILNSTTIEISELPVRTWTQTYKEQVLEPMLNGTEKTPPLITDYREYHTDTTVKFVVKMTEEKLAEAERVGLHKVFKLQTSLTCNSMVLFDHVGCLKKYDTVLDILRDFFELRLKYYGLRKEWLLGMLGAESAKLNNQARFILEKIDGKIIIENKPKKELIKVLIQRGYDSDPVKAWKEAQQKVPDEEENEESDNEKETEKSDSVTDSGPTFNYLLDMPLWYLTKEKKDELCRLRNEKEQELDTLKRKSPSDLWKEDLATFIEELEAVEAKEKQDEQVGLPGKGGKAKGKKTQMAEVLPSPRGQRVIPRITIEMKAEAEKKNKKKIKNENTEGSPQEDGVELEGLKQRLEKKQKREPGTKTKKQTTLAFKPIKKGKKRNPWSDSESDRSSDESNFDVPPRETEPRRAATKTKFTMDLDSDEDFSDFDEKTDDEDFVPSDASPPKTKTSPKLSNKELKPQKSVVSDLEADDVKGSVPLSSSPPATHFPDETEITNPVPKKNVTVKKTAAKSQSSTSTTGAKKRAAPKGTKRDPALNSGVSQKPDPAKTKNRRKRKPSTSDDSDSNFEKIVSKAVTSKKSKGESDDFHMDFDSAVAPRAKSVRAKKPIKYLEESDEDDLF", "UniProt P21917, sequence (whole entry, looked up)": "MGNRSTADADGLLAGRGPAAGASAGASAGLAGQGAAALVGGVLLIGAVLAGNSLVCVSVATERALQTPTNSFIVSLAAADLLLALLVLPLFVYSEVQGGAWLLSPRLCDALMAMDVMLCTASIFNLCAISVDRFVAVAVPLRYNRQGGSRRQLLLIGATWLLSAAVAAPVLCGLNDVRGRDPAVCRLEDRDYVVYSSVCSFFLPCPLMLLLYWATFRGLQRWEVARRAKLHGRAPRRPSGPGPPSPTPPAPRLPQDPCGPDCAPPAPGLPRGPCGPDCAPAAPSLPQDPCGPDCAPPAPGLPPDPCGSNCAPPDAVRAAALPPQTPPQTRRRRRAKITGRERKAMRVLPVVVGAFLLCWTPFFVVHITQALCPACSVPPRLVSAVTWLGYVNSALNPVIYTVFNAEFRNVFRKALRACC", "UniProt Q92207, sequence (whole entry, looked up)": "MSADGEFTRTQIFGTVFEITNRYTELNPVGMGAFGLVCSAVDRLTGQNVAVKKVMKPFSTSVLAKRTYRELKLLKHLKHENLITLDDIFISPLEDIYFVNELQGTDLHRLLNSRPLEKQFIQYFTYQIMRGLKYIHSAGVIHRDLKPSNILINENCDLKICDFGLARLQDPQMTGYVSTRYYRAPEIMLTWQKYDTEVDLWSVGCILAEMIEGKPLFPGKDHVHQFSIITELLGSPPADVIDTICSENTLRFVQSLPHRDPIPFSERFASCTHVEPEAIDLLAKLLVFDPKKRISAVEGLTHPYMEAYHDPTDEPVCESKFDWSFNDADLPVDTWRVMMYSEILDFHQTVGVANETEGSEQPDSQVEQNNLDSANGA", "UniProt P11310, sequence (whole entry, looked up)": "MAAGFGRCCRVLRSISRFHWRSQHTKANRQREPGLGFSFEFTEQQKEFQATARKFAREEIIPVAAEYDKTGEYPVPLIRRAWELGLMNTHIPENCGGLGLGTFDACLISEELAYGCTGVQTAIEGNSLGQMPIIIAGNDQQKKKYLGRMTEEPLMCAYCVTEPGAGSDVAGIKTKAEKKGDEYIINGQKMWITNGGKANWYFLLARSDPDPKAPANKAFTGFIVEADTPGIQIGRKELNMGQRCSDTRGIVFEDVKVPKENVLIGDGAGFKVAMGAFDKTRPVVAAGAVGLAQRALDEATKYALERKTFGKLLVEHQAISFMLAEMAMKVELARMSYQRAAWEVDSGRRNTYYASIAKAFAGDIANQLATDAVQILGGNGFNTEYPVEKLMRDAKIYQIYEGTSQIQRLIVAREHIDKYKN", "UniProt Q96SW2, sequence (whole entry, looked up)": "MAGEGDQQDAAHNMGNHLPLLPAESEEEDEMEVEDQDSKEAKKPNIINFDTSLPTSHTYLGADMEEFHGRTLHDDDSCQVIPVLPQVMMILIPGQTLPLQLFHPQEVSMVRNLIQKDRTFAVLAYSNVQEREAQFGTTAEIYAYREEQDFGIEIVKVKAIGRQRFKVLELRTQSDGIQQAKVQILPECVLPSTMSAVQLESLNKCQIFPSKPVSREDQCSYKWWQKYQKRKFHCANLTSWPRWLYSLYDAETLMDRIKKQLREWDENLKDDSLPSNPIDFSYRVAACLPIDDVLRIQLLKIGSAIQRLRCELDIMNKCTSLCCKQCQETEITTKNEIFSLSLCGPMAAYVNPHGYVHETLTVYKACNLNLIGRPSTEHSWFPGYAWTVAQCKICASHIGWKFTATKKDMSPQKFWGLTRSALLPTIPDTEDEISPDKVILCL", "UniProt P48729, sequence (whole entry, looked up)": "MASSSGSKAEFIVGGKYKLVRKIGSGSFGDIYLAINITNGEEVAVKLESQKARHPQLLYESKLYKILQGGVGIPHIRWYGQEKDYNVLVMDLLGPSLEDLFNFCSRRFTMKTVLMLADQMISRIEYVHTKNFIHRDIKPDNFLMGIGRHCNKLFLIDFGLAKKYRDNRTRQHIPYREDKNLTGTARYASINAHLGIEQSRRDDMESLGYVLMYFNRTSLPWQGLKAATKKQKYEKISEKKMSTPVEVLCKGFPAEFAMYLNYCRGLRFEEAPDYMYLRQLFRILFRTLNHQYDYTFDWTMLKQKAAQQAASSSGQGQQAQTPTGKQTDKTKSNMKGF"}
{"Compound": "Nc1ccc(C(=O)O)cc1", "target or system": "BEST1, with wild-type BEST1 (Homo sapiens, UniProt O76090, R218H)", "test": "ion current, whole-cell patch clamp", "test system": "HEK293 co-expressing mutant and wild-type", "conditions": "concentration not given, voltage 40 mV", "endpoint": "current density", "result": "15.8 pA/pF and 10.8 pA/pF and 7.94 pA/pF and 2.14 pA/pF and 12.9 pA/pF and 6.94 pA/pF and 4.19 pA/pF and 3.04 pA/pF"}
{"Compound": "c1ccc(-c2n[nH]cc2-c2ccnc3ccccc23)nc1", "target or system": "Mitogen-activated protein kinase HOG1 (HOG1, Candida albicans, UniProt Q92207)", "test": "binding, MIB/MS competition", "test system": "Candida albicans cell lysate", "conditions": "0.1 to 10 µM", "endpoint": "activity class", "result": "inactive"}
{"Compound": "COc1cc(/C=C/c2ccc(O)cc2)cc(OC)c1", "target or system": "O-methyltransferase (Sorghum bicolor, UniProt A0A1B6PFV1)", "test": "isothermal titration calorimetry", "conditions": "concentration not given, apo protein", "endpoint": "binding stoichiometry", "result": "0.86 ± 0.018 sites"}
{"Compound": "O=C1c2ccccc2CCN1CCCCN1CCN(c2ccccn2)CC1", "target or system": "DRD4 (Homo sapiens, UniProt P21917)", "test": "radioligand binding", "conditions": "concentration not given, together with: [3H]N-methylspiperone", "endpoint": "inhibition", "result": "100%"}
{"Compound": "Cn1cc(-c2ccc(-c3cncc(Cl)c3N3CCC4(CCNC4=O)CC3)cc2)cn1", "target or system": "COLO 205", "test": "microarray, refers to: LCN2", "conditions": "concentration not given, 6 h, gene set NGAL", "scale": "relative to: untreated cells", "endpoint": "fold change in expression", "result": 2.11}
{"Compound": "O=C(O)[C@@H]1CCCN1c1ncnc2[nH]cnc12 (racemic)", "target or system": "FBXW7 (Homo sapiens, UniProt Q969H0)", "test": "binding, affinity selection mass spectrometry", "scale": "relative to: other proteins in batch", "endpoint": "log fold enrichment", "result": -0.0576}
{"Compound": "COc1cc(CNC(=O)CCCC/C=C/C(C)C)ccc1O", "target or system": "TRPV1 (Homo sapiens, UniProt Q8NER1)", "test": "channel activation, FLIPR calcium", "test system": "HEK293T", "conditions": "60 µM", "scale": "higher = more activation", "endpoint": "calcium response", "result": "29.3 a.u. and 28.1 a.u. and 28.8 a.u."}
{"Compound": "Nc1ncnc2c1ncn2[C@@H]1O[C@H](COP(=O)(O)OP(=O)(O)OP(=O)(O)O)[C@@H](O)[C@H]1O", "target or system": "P2X purinoceptor 2 (P2RX2, Homo sapiens, UniProt Q9UBL9, D148K/E146K/L150K)", "test": "ion current, agonist, two-electrode voltage clamp", "test system": "Xenopus oocytes", "conditions": "concentration not given", "endpoint": "peak current", "result": "3570 nA"}
{"Compound": "NS(=O)(=O)c1ccc(Nc2nc(-c3ccc(F)cc3)c3ccccc3n2)cc1", "target or system": "Protein polybromo-1, bromodomain 2 (PBRM1, Homo sapiens, UniProt Q86U86)", "test": "bromodomain binding, BROMOscan", "conditions": "1000 nM", "scale": "relative to: DMSO control", "endpoint": "remaining binding", "result": "72%"}
{"Compound": "CC(C)(COP(=O)(O)OP(=O)(O)OC[C@H]1O[C@@H](n2cnc3c(N)ncnc32)[C@H](O)[C@@H]1OP(=O)(O)O)[C@@H](O)C(=O)NCCC(=O)NCCSC(=O)CCCc1ccccc1", "target or system": "ACADM (Homo sapiens, UniProt P11310)", "test": "charge-transfer complex formation, anaerobic spectrophotometric titration", "endpoint": "apparent Kd", "result": "2.16 µM"}
{"Compound": "N#Cc1cccc(C(=O)Nc2ccc3c(c2)CN(C2CCC(=O)NC2=O)C3=O)c1 (stereo not shown)", "target or system": "Cereblon/Casein kinase I alpha (CSNK1A1/CRBN, Homo sapiens, UniProt P48729+Q96SW2)", "test": "degrader, live-cell HiBiT kinetic", "test system": "HEK293 LgBiT", "conditions": "10 µM", "endpoint": "degradation rate constant", "result": "1.7 h⁻¹"}
{"Compound": "O=c1nc(SCc2cc(F)cc(C(F)(F)F)c2)nc(SCc2ccc3nc(Cl)ccc3c2)[nH]1", "target or system": "TOP2A (Homo sapiens, UniProt P11388)", "test": "ATPase activity", "conditions": "125 µM, together with: ATP 0.25 mM", "endpoint": "ATP hydrolysis rate", "result": "0.249 µM/min and 1.78 µM/min"}
{"Compound": "CC(=O)N[C@H](C(=O)N1C[C@H](O)C[C@H]1C(=O)NCc1ccc(-c2scnc2C)cc1)C(C)(C)SCCCCCCNC(=O)C[C@@H]1N=C(c2ccc(Cl)cc2)c2c(sc(C)c2C)-n2c(C)nnc21", "target or system": "VHL/BRD3, BD1; with Elongin B/C (Homo sapiens, UniProt P40337+Q15059)", "test": "ITC", "conditions": "25 °C, PROTAC:Brd3^BD1", "scale": "relative to: Kd binary over Kd ternary", "endpoint": "cooperativity", "result": 1.5}
{"note": "A few entries again:"}
{"Compound": "O=c1nc(SCc2cc(F)cc(C(F)(F)F)c2)nc(SCc2ccc3nc(Cl)ccc3c2)[nH]1", "target or system": "TOP2A (Homo sapiens, UniProt P11388)", "test": "ATPase activity", "conditions": "125 µM, together with: ATP 0.25 mM", "endpoint": "ATP hydrolysis rate", "result": "0.249 µM/min and 1.78 µM/min"}
